Experimental data pooled from the literature.
± marks the error that the study gave.
Cell line: RAW264.7

Compound	assay	conditions	scale	measurement	result
CC#CC#C/C=C1/O[C@@]2(CC[C@@H](OC(C)=O)CO2)[C@H](O)[C@H]1OC(C)=O	NO release, inhibitor, Griess	LPS-stimulated	–	IC50	19.5 µM
C=CCOCO[C@H](C(=O)NC[C@@H]1C[C@@H](OC)C(C)(C)[C@@H](C[C@@H](COC)OC)O1)[C@@]1(OC)CC(=C)[C@@H](C)[C@@H](C)O1	cell viability, sulforhodamine B	48 h, 37 °C, without H2O2	–	IC50	1.44 ± 0.483 µM
CC1CCC2(CO)CCC3(C)C(=CCC4C(C)(CCC(=O)O)C(C(C)(O)CO)CC(O)C43C)C2C1C (stereo not shown)	NO release, inhibitor, Griess	LPS-stimulated	–	IC50	> 100 µM
CC#CC#C/C=C1/O[C@@]2(CCCCO2)[C@@H](O)[C@@H]1OC(C)=O	Western blot	concentration not given, with: LPS	–	COX-2 protein level	decreased
O=C(COC(=O)c1ccccc1Nc1cccc(C(F)(F)F)c1)Nc1cccc(C(F)(F)F)c1	ELISA	concentration not given, 24 h, with: LPS 100 ng/mL	–	PGE2 level	171 ± 5.61 pg/mL
CC#CC#C/C=C1/O[C@@]2(CC[C@@H](O)CO2)[C@H](O)[C@H]1OC(C)=O	NO release, inhibitor, Griess	LPS-stimulated	–	IC50	> 50 µM
CC(C)(O)C1CC[C@]2(C)C(CC=C3[C@@H]4CC(C)(C)[C@@H](O)C[C@]4(C(=O)O)CC[C@]32C)[C@@]1(C)CCC(=O)O (stereo partly shown)	NO release, inhibitor, Griess	LPS-stimulated	–	IC50	> 100 µM
C=Cc1c(C)c2cc3nc(c(CC(=O)[O-])c4[n-]c(cc5nc(cc1[n-]2)C(C)=C5CC)c(C)c4C(=O)[O-])C(CCC(=O)[O-])C3C.[Cu+2].[Na+].[Na+].[Na+] (stereo not shown)	–	concentration not given	relative to: untreated	colony formation	increased
CC#CCC#CCCCC(OC(C)=O)C(=O)NCCCOc1ccc2c(-c3ccccc3C(=O)OCC)c3ccc(=O)cc-3oc2c1 (stereo not shown)	cell retention	after four washes	–	decrease of intensity	~4 fold
CC1(C)C[C@H]2C3=CCC4[C@@](C)(CCC(=O)O)C([C@@](C)(O)CO)CC[C@@]4(C)[C@]3(C)CC[C@@]2(CO)C[C@@H]1O (stereo partly shown)	NO release, inhibitor, Griess	LPS-stimulated	–	IC50	> 100 µM

Excerpt of the above:
Compound	assay	conditions	scale	measurement	result
CC1CCC2(CO)CCC3(C)C(=CCC4C(C)(CCC(=O)O)C(C(C)(O)CO)CC(O)C43C)C2C1C (stereo not shown)	NO release, inhibitor, Griess	LPS-stimulated	–	IC50	> 100 µM
